Published values from different studies.
A part holds a random share of what one study measured.

Sample 1
Target: RNA binding protein fox-1 homolog 2, RRM domain, GST-SBP tag (RBFOX2, Homo sapiens, UniProt O43251-10, residues 100-194)
Technique: RNA Bind-n-Seq
Molecule type: RNA
Sample: in vitro
Tested at: 365 nM
Setting: natural RNA segment, single round, ends assumed
Baseline: no-protein control
Direction: higher = stronger binding
Constant ends, left off below: GGGAGUUCUACAGUCCGACGAUC … UGGAAUUCUCGGGUGCCAA
Target sequence (chain): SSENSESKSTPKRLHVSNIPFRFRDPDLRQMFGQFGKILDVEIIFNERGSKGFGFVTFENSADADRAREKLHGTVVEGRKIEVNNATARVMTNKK
Under “RBNS enrichment (R)”, `GAAGUCUUCCCUCAACUACGUGUGAUGACCAAGUCCAAGGUUGACCAGGGACUGUCUACAGCAGCCACAGCCACUGUGCACAAUGGACAGGGUGCCCAGGUCCUCGGAGC` is recorded as 0.244.
Under “RBNS enrichment (R)”, `ACUGAAGACUGGCUGGAGGCACUGCAGAAGCAGCCCUUGGCUUUCUACUCCCACACUUGCUUGUGAAACGUGUACCAGCUACCUAAGGAGGGCCAAGGCAGGAAGGGCCA` is recorded as 1.16.
For `AUGUAGUUGUUCGUUGGUUAUACAAGUUCUUGGUCCCUCCAGAACCACCCCGGCCCCCUGCCCGUUCUUGAAAUGUAGGCAUCAUGCAUGUCAAACAUGAGAUGUGUGGA`, “RBNS enrichment (R)” read 0.65.
`CACCCUCCCAUUCCACAUUCCCCAAUCUAGAGCCUUGGCCACUCUCUCCUGAAGGACCUGGGUCCCUUCCCCCGGAGCCUGUGCCUUGGGGCAGGGGAACCCCAAAGUAA` — result for “RBNS enrichment (R)”: 0.433.
`CUAAGCAAAACCAGGUUUAGAGGCACUACCAGUACACACAGUACCUGCACACGUACAGGUCAACAGCCUUCUCCCUCCUAAGAUGGACUUAAUUCAGACAGCCACUGCUU` — result for “RBNS enrichment (R)”: 0.364.
`UUGAUAUAUAGCAGGUAACAUUGAAGCUAUUCCAUAGCACUUAACUGUAGUGAAUACUGUGUCACCAAUUUUGAAAUCAAUUUAAUGUUUAAUGCAAAUCCAUUACAUGG` — result for “RBNS enrichment (R)”: 0.566.
`GAGAGGGCAUAGUUCUCCAGAGCGUCAAGGUUUCCUGAAGUUUUCAAAAGCUGCUGUCACAAUUUCAUUCCGAGGCCAUCUUGCCCCUCCCCCUUCACUCUGCCUUCCUG`: “RBNS enrichment (R)” 0.63.
`AUUGGUUUUGUGUCCGAGGCUUGUUCCAAGUUUGUCAAUGAGGUUUAUGGAGCCUCCAGAACAGAUGCCAUCUUCCUGAAUGUUGACAUGCCAGUGGGUGUGACUCCUUC` — result for “RBNS enrichment (R)”: 0.546.
Under “RBNS enrichment (R)”, `AGCUCGGGGAGCCUUAGCCGCCCAUGCACUGGGGACGCUCCGCUGCCGUGCCGCCUGCACUCCUCAGGGCAGCCUCCCCCGGCUCUACGGGGGCCGCGUGGUGCCAUCCC` is recorded as 0.196.
Under “RBNS enrichment (R)”, `UCAGGCUCUGUCCUAGAGUGGGCAGUCCUGAUGCAGGGCUCAGCAGGAGCCUAGUGCAGGGUGAACACGAAGCUGCUUGAGCAGCAGGAGGUGGCUGGACCAUCGUACCC` is recorded as 0.22.
Under “RBNS enrichment (R)”, `ACCUGGCUGAUUUUUGUAAUUUUAGUAGAGACGGGGUUUCACCAUGUUGGCCAGGCUGAUUAACUCCUGACCUCAGGUGAUCCACCUUUCUCGGCCUCCCAAAGUGCUGG` is recorded as 0.287.
For `CAAAAGUCCCCAAUGACAGGAACAAAAGCAACCAAUUUUUAACUUUCUCUUCUCAUUCCUGUUUUCAUUGAUUUCCCACAUGUAGUCCUUUUGCUCAGGAAGUCUUUGGG`, “RBNS enrichment (R)” read 0.661.

Sample 2
Target: Centromere-binding protein 1, full length, His-tagged (CBF1, Saccharomyces cerevisiae, UniProt P17106, residues 1-351)
UniProt P17106, sequence (whole entry, looked up): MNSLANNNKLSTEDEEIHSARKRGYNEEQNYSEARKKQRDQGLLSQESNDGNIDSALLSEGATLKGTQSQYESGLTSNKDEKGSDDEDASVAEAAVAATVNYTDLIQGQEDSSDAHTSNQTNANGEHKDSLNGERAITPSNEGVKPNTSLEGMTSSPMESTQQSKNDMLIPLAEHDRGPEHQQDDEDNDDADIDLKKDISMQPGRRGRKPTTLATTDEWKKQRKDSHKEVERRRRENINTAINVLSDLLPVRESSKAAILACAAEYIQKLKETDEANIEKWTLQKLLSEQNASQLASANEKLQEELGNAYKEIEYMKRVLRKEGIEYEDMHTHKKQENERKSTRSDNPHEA
Technique: competition protein-binding microarray
Molecule type: double-stranded DNA, one strand shown
Sample: in vitro
Tested at: 2 µM
Setting: whole 60-bp probe, lowest competitor level
Added: Pho4 competitor, 0.05 µM
Direction: higher = stronger binding
Constant ends, left off below: … GTCTTGATTCGCTTGACGCTGCTG
`TGCTGGATTAGGGAACACGTGGAAAGGGCTAGACCA` gave a fluorescence intensity of 1030 a.u.
With `AAATTACTAAGTTGTCACGTTACTTACCCCGTATGA` the fluorescence intensity was 1080 a.u.
For `CACCCCAGGAGTCTTCACATGAGCAGGAAGAATTTG`, the fluorescence intensity was 86.6 a.u.
With `ATAACCGAAATGGGACACGTGCTGAAGCGGGGCAGA` the fluorescence intensity was 1500 a.u.
`AGAGCACTACAACAAGGCGTGGGTACTGCATAAAGA` has a fluorescence intensity of 67.7 a.u.
`AAAGCGGTAATTTGTAGTGTGGGTGCAGATATCTAT` has a fluorescence intensity of 83.7 a.u.
The fluorescence intensity of `AACGGTTGATTCATTAATGTGATGCTTGTTCACCCT` is reported as 72.1 a.u.
For `CTAAAATCAGCATCGCACATGGACGGTTAGCTCGCG`, the fluorescence intensity was 69.5 a.u.
`CCGATAACTCTTTGGAACGTGTTTCGAAGGAGTTGG` gave a fluorescence intensity of 94.9 a.u.
For `TGGAGCTGTTGCGACCTTATTAGAACACCAACACTT`, the fluorescence intensity was 67.9 a.u.
`CATACCCAACCTTGACAAGTGGGTGAAGATATTTGT` gave a fluorescence intensity of 69.2 a.u.
`TTGATATCTGAAGTTGCTCCCAAACAAATCAGAGGA` gave a fluorescence intensity of 77.4 a.u.
For `TTTTCCGGCAAGAGTCGCGTGATGGTTTTTTCTAAT`, the fluorescence intensity was 348 a.u.
`TCGTATACTTTATGTCTCGTGGGTATAAAAAGCCAA` gave a fluorescence intensity of 204 a.u.
The fluorescence intensity of `TCTCGTCTTGCTCTTCTTTTAAGAAATATTTGCCGC` is reported as 86.1 a.u.
`ACCAACCCAGGTACCGATGTGACGGTTTCCTCAGTC` has a fluorescence intensity of 79.1 a.u.
`TGCGCAACAACTTGTACTGTGGGTGTATGTCTAGAA` has a fluorescence intensity of 65.7 a.u.
The fluorescence intensity of `TGCGCAACAACTTGTTATGTGGGTGTATGTCTAGAA` is reported as 70.6 a.u.
With `CGTCCTAGTGATTGCTATGTGGGTGCCATGAGGAAG` the fluorescence intensity was 92 a.u.
`TTGGTGAAGGTTCCTCTCGTGAAGACGCTGCTTTGG` has a fluorescence intensity of 67.6 a.u.
For `CTTCTGTAAATTTGCTCTGTGGGTGGACGCGCCCCG`, the fluorescence intensity was 78.3 a.u.
`CTTTCCCGATCTTGCACTGTGGGTGTAGCACATTTG` has a fluorescence intensity of 74.7 a.u.
For `GGTGCGAAGTATCACCACGTTTCTTTTTCATCTCTT`, the fluorescence intensity was 139 a.u.
`GGCATACCTGTAAATCACCTGCTAACAAGGAATTCC` gave a fluorescence intensity of 268 a.u.
With `TCTTTGAAGGTGCGTCATGCTCACTGTTGAACTCTA` the fluorescence intensity was 60 a.u.

Sample 3
Target: Fragile X messenger ribonucleoprotein 1, C-terminal low-complexity region (Fmr1, Mus musculus, UniProt P35922)
Technique: RNA Bind-n-Seq
Molecule type: RNA
Sample: in vitro
Tested at: 200 nM
Setting: whole 134-nt RNA, ends assumed
Added: 150 mM LiCl
Baseline: input library
Direction: higher = stronger binding
Library: 7-deaza-guanosine replaces G
Constant ends, left off below: GGGAGUUCUACAGUCCGACGAUC … UGGAAUUCUCGGGUGUCAAGG
With `CAGCAGUGAGUCUCUUCAGAAAACCCUUUUCUACAGUUAGGGUUGAGUUACUUCCUAUCAAGCCAGUACGUGCUAACAGGCUCAAUAUUC` the log2 enrichment was -1.27.
With `UCCUGUGCUACACAUCGUAUGUACCGAAUCGGGCCCCCCGGCCCCCCGGGCCCCCCGGGAAAGUAUUAUGUUACGCCGUUCGGAUCUGCA` the log2 enrichment was 0.749.
`AAGUCCUGUGCUACACAUCGUAUGUACCGAAUCGGAAAAAGGUUUGGAAAAAAAGGAAAGUAUUAUGUUACGCCGUUCGGAUCUGCACUU` gave a log2 enrichment of -2.65.
With `CUCAAGUCCUGUGCUACACAUCGUAUGUACCGAAUCGGAAAAAGGAAAGGUGGAAAGUAUUAUGUUACGCCGUUCGGAUCUGCACUUCCA` the log2 enrichment was -0.832.
With `AGUCCUGUGCUACACAUCGUAUGUACCGAAUCGGGGAAAAAGGGAAAAAGGAAAAAGGAAAGUAUUAUGUUACGCCGUUCGGAUCUGCAC` the log2 enrichment was -0.57.
With `UGGGAGGUGGAUUUUGUUUAUUUUUUUAGCUCAUUUCCAGGGGUGGGAAUUUUUUUUUAAUAAGUGUCAUGAAUAAAGUUGUUUUUGAAA` the log2 enrichment was -0.108.
`GUCCUGUGCUACACAUCGUAUGUACCGAAUCGGGAAAAAAAGGGUUUUUGGGAAAGGGAAAGUAUUAUGUUACGCCGUUCGGAUCUGCAC` gave a log2 enrichment of -1.85.
`ACCAUGCAGGUGGGCAUCUUUGGGAAGUGGGGCAAGGGGGGGAUAGGGAGGGGGGUAACACUUUGGGAACAGCUGGUCCCAGGUCGUUUC` has a log2 enrichment of 1.52.
`CACAGACAACACGCACCCACACAGACACAGAGGGAAGGGGAAAGGAUGGGGACAGGGUGCACAGCAGGGCGGGGUAGGACCCCAGCCCCU` has a log2 enrichment of -0.67.
For `CACAGACAAAACGCACCCACACAGACACAGAGGGAAGGGGUUGGGAUGGGGACAGGGUGCACAGCAGGGCGGGGUAGGACCCCAGCCCCU`, the log2 enrichment was 0.255.
The log2 enrichment of `UGGCCCUGGUGGCAUGCGGGGAGGAAGAGGUGGCCUCAUGGAUCGCGGUGGUCCCGGUGGAAUGUUCAGAGGUGGCCGUGGUGGAGACAG` is reported as -0.262.

Sample 4
Target: Histone acetyltransferase KAT6A, winged helix 1, GST fusion (KAT6A, Homo sapiens, UniProt Q92794, residues 1-85)
Technique: protein binding microarray
Molecule type: double-stranded DNA, one strand shown
Sample: in vitro
Tested at: not given
Setting: 8-mer, flanks averaged, mean of 2 arrays, mostly near background
Baseline: not given
Direction: higher = stronger binding
Residues (chain): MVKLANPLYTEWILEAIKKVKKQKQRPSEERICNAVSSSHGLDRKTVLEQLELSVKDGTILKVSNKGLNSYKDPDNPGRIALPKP
`GCGTGCAC` has an E-score of 0.0697.
`AGACGACA` gave an E-score of -0.0499.
`GAATGCTC` gave an E-score of -0.0644.
The E-score of `CACTACAG` is reported as -0.185.
`ACTGGCAG` has an E-score of -0.0537.
For `GCATGAAC`, the E-score was -0.0381.
For `ATGCATCA`, the E-score was -0.139.
`GCGCGTTA` has an E-score of 0.387.
The E-score of `ATGTTCAG` is reported as -0.283.
`CCCTACGG` gave an E-score of 0.299.
With `ATCCAAGG` the E-score was -0.117.
With `GCATCACC` the E-score was 0.0725.
For `CCGCCGAC`, the E-score was 0.408.
`GATCCCAA` gave an E-score of -0.199.
`AAACAGAT` gave an E-score of -0.12.
`AAAGTCCA` has an E-score of -0.216.
With `AGTATTCC` the E-score was -0.0545.
For `ATGATCCA`, the E-score was -0.0657.
For `CGAGTCGC`, the E-score was 0.0877.
`CTTGGACC` gave an E-score of 0.0446.
`AAATTTCA` gave an E-score of -0.357.
For `AGCTATAG`, the E-score was -0.0528.
The E-score of `ATCAGAGG` is reported as -0.158.
For `CTGATCTC`, the E-score was -0.112.
`GGGAGTGA` gave an E-score of -0.0433.

Excerpt of the above (sample 2):
For `CTTCTGTAAATTTGCTCTGTGGGTGGACGCGCCCCG`, the fluorescence intensity was 78.3 a.u.
`ACCAACCCAGGTACCGATGTGACGGTTTCCTCAGTC` has a fluorescence intensity of 79.1 a.u.
`TTGATATCTGAAGTTGCTCCCAAACAAATCAGAGGA` gave a fluorescence intensity of 77.4 a.u.
`GGCATACCTGTAAATCACCTGCTAACAAGGAATTCC` gave a fluorescence intensity of 268 a.u.
